Experimental data of several laboratories.
Each line is one published result; not all experiments were run side by side. “And” joins repeats or separate records; there may be more than shown.
Target: Misshapen-like kinase 1 (MINK1, Homo sapiens, UniProt Q8N4C8)

Compound	assay	conditions	scale	quantity	result
COCC12C(=O)NC3C4(C(OC)CC1O)C1CC5(O)C(OC)C(O)C(OC(C)=O)(C1C5OC(=O)c1ccccc1)C3(O)C(OC)C24 (stereo not drawn)	kinase activity, inhibitor, ProQinase kinase profiling	25 µM	reference: control	remaining activity	90% and 111%
COc1cc(Nc2nccc(-c3cnn4nc(OC)ccc34)n2)cc(C(F)(F)F)c1	binding, competition with immobilised ligand	1 µM	–	remaining binding	89%
COc1ccc(NC(=O)Nc2ccc3c(c2)C(=O)N(C(C)CO)CC(C)C(CN(C)Cc2ccc4c(c2)OCO4)O3)cc1 (stereo not drawn)	kinase activity, KinaseProfiler	0.03 µM, species human	reference: control	remaining activity	93%
CNC(=O)C[C@H](Cc1ccc(C#N)cc1)NC(=O)c1cc(-c2ccc(CN[C@H](C)c3ccc(C)cc3)o2)ccc1Cl	enzyme activity, inhibitor	1 µM	–	activity vs control	90%
O=C(Cc1ccc(OCc2ccccc2)cc1)NC1(C(=O)O)CCN(C(=O)c2ccc(-c3cccc(Cl)c3)cc2)CC1	enzyme activity, inhibitor	10 µM	–	activity vs control	108%
Nc1ncc(-c2cc(-c3cnn(CC(F)(F)F)c3)ncc2F)nc1C(=O)NC1CNCC(F)C1 (stereo not drawn)	enzyme activity	1 µM	reference: DMSO control	remaining activity	108%
Cc1cccc(O[C@H]2CCC[C@@H](C(C)CNCc3ccncc3)C2)c1 (relative stereo)	enzyme activity, inhibitor	10 µM	–	inhibition	-13%
O=C=[N][Ru-4]123([n]4c5ccc(O)cc5c5c6c(c7cc(F)c[n+]1c7c54)C(=O)NC6=O)[S+]1CC[S+]2CC[S+]3CC1 (stereo not drawn)	enzyme activity	100 nM, human enzyme, added: 10 µM ATP	reference: untreated	remaining activity	77%
NC(=O)[C@@H](O)C[C@H]1CCc2sc3ncnc(O[C@H]4CC[C@H](N5CCOCC5)CC4)c3c21	enzyme activity, inhibitor	10 µM	–	inhibition	13%
C=CC(=O)N1Cc2nc(-c3cc(-c4cc(Cl)cnc4Cl)c(F)cc3F)n(-c3ccncn3)c2C1	cell-free assay, inhibitor	1 µM	–	inhibition	9.9%
CNC(=O)C1CCN(c2cc(C)c(F)cc2NC(=O)c2ccc(-c3cc(O)ccc3C)c(C)c2)CC1	binding, competition with immobilised ligand	1 µM	–	remaining binding	81%
C=CC(=O)N1CCc2ccc(-n3c(=O)ccc4cnc5ccc(-c6cnn(C)c6)cc5c43)cc21	KINOMEscan	1 µM	reference: DMSO control	remaining binding	63%
C=CC(=O)Nc1cccc(-c2cnc3[nH]cc(C(=O)NC(C)(C)C)c3n2)c1	enzyme activity, inhibitor	0.1 µM	–	inhibition	29%
CCn1cc(C(=O)O)c(=O)c2c(N)c(F)c(NC3CCCCC3)cc21	kinase activity	0.1 µM, added: ATP at Km	–	inhibition	7.5%
Cc1ccc(-c2c(/C=C(\C#N)C(=O)NC(C)C)n(CCCO)c3ncnc(N)c23)cc1	cell-free assay, competition with immobilised ligand	1 µM	–	remaining binding	99%

A few entries again:
Compound	assay	conditions	scale	quantity	result
C=CC(=O)N1Cc2nc(-c3cc(-c4cc(Cl)cnc4Cl)c(F)cc3F)n(-c3ccncn3)c2C1	cell-free assay, inhibitor	1 µM	–	inhibition	9.9%
